Measured values of several laboratories.
Protocols differ between the studies behind these lines. Numbers after ± are the reported error.

| SMILES | test system | setting | tissue uptake [%ID/g] |
| --- | --- | --- | --- |
| N=C(N)NCCC[C@@H]1NC(=O)[C@H](CCCCNC(=O)CCOCCOCCOCCOCCNC(=O)CC[C@H](NC(=O)CCOCCOCCOCCOCCNC(=O)CC[C@H](NC(=O)CN2CCN(CC(=O)O)CCN(CC(=O)O)CCN(CC(=O)O)CC2)C(=O)NCCOCCOCCOCCOCCC(=O)N[C@@H](CCC(=O)NCCOCCOCCOCCOCCC(=O)NCCCC[C@@H]2NC(=O)[C@@H](Cc3ccccc3)NC(=O)[C@H](CC(=O)O)NC(=O)CNC(=O)[C@H](CCCNC(=N)N)NC2=O)C(=O)NCCOCCOCCOCCOCCC(=O)NCCCC[C@@H]2NC(=O)[C@@H](Cc3ccccc3)NC(=O)[C@H](CC(=O)O)NC(=O)CNC(=O)[C@H](CCCNC(=N)N)NC2=O)C(=O)NCCOCCOCCOCCOCCC(=O)NCCCC[C@@H]2NC(=O)[C@@H](Cc3ccccc3)NC(=O)[C@H](CC(=O)O)NC(=O)CNC(=O)[C@H](CCCNC(=N)N)NC2=O)NC(=O)[C@@H](Cc2ccccc2)NC(=O)[C@H](CC(=O)O)NC(=O)CNC1=O [indium-111 labelled] | female athymic nude mice, kidney | intravenous, 3 µCi, 4 h, U-87 MG glioma xenograft | 5.55 ± 0.88 |
| CCCC[C@H](NC(=O)CCCCCCCNC(=O)c1ccc(NN)nc1)C(=O)N[C@H]1CC(=O)NCCCC[C@@H](C(N)=O)NC(=O)[C@H](Cc2c[nH]c3ccccc23)NC(=O)[C@H](CCCNC(=N)N)NC(=O)[C@@H](Cc2ccccc2)NC(=O)[C@H](Cc2c[nH]cn2)NC1=O [technetium-99m labelled] | C57 mouse, B16/F1 melanoma, tumor | 2 h, with: L-lysine 12 mg co-injected | 25.9 ± 6.8 |
| N=C(N)NCCC[C@@H]1NC(=O)[C@H](CC(=O)NC23CNCCNCC(N)(CNCCNC2)CNCCNC3)NC(=O)[C@@H](Cc2ccccc2)NC(=O)[C@H](CC(=O)O)NC(=O)CNC1=O [copper-64 labelled] | Nu/Nu mouse, male, tumour-bearing, lung | intravenous, 10 µCi, 4 h | 0.9 ± 0.33 |
| N=C(N)NCCC[C@@H]1NC(=O)[C@H](CCCCNC(=O)CC[C@H](NC(=O)CCOCCOCCOCCOCCNC(=O)CC[C@H](NC(=O)CN2CCN(CC(=O)O)CCN(CC(=O)O)CCN(CC(=O)O)CC2)C(=O)NCCOCCOCCOCCOCCC(=O)N[C@@H](CCC(=O)NCCCC[C@@H]2NC(=O)[C@@H](Cc3ccccc3)NC(=O)[C@H](CC(=O)O)NC(=O)CNC(=O)[C@H](CCCNC(=N)N)NC2=O)C(=O)NCCCC[C@@H]2NC(=O)[C@@H](Cc3ccccc3)NC(=O)[C@H](CC(=O)O)NC(=O)CNC(=O)[C@H](CCCNC(=N)N)NC2=O)C(=O)NCCCC[C@@H]2NC(=O)[C@@H](Cc3ccccc3)NC(=O)[C@H](CC(=O)O)NC(=O)CNC(=O)[C@H](CCCNC(=N)N)NC2=O)NC(=O)[C@@H](Cc2ccccc2)NC(=O)[C@H](CC(=O)O)NC(=O)CNC1=O [indium-111 labelled] | athymic nude mice, female, U-87 MG glioma xenograft, U-87 MG tumour | intravenous, 3 µCi, 72 h | 2.87 ± 1.45 |
| N=C(N)NCCC[C@@H]1NC(=O)[C@H](CCCCNC(=O)CNC(=O)CNC(=O)CNC(=O)CC[C@H](NC(=O)c2ccc(NN=Cc3ccccc3S(=O)(=O)O)nc2)C(=O)NCC(=O)NCC(=O)NCC(=O)NCCCC[C@@H]2NC(=O)[C@@H](Cc3ccccc3)NC(=O)[C@H](CC(=O)O)NC(=O)CNC(=O)[C@H](CCCNC(=N)N)NC2=O)NC(=O)[C@@H](Cc2ccccc2)NC(=O)[C@H](CC(=O)O)NC(=O)CNC1=O [technetium-99m labelled] | athymic nu/nu mouse, female, U-87 MG glioma xenograft, tumour | intravenous, 2 µCi, 30 min | 13.4 ± 0.98 |
| CSCC[C@H](NC(=O)[C@H](CC(C)C)NC(=O)[C@H](Cc1c[nH]cn1)NC(=O)CNC(=O)[C@@H](NC(=O)[C@H](C)NC(=O)[C@H](Cc1c[nH]c2ccccc12)NC(=O)[C@H](CCC(N)=O)NC(=O)CCCCCNC(=O)CNC(=O)CNC(=O)CNC(=O)CSC(C)=O)C(C)C)C(N)=O [technetium-99m labelled] | healthy Swiss mouse, large intestine, contents removed | intravenous, 18.5 MBq, 30 min | 1 ± 0.22 |
| CC(C)C[C@H](NC(=O)[C@H](Cc1ccc(O)cc1)NC(=O)[C@@H](CCCNC(=N)N)NC(=O)[C@@H](CO)NC(=O)[C@H](Cc1ccccc1)NC(=O)[C@H](CC1CCCCC1)NC(=O)[C@H](CC(=O)O)NC(=O)CCC(C(=O)O)N1CCCN2CCN(CCCN(CC(=O)O)CC2)CC1)C(=O)N[C@@H](Cc1c[nH]c2ccccc12)C(=O)N[C@@H](CO)C(=O)O (stereo partly shown) [copper-64 labelled] | female NMRI nude mice, bone | 22 h p.i. | 0.9 ± 0.3 |
| CCCC[C@H](NC(=O)CNC(=O)CNC(=O)c1ccc(NN)nc1)C(=O)N[C@H]1CC(=O)NCCCC[C@@H](C(N)=O)NC(=O)[C@H](Cc2c[nH]c3ccccc23)NC(=O)[C@H](CCCNC(=N)N)NC(=O)[C@@H](Cc2ccccc2)NC(=O)[C@H](Cc2c[nH]cn2)NC1=O [technetium-99m labelled] | C57 mouse, B16/F1 melanoma-bearing, skin | intravenous, 4 h | 0.33 ± 0.12 |
| N=C(N)NCCC[C@@H]1NC(=O)[C@H](CCCCNC(=O)CNC(=O)CNC(=O)CNC(=O)CC[C@H](NC(=O)CCOCCOCCOCCOCCNC(=O)CC[C@H](NC(=O)CN2CCN(CC(=O)O)CCN(CC(=O)O)CCN(CC(=O)O)CC2)C(=O)NCCOCCOCCOCCOCCC(=O)N[C@@H](CCC(=O)NCC(=O)NCC(=O)NCC(=O)NCCCC[C@@H]2NC(=O)[C@@H](Cc3ccccc3)NC(=O)[C@H](CC(=O)O)NC(=O)CNC(=O)[C@H](CCCNC(=N)N)NC2=O)C(=O)NCC(=O)NCC(=O)NCC(=O)NCCCC[C@@H]2NC(=O)[C@@H](Cc3ccccc3)NC(=O)[C@H](CC(=O)O)NC(=O)CNC(=O)[C@H](CCCNC(=N)N)NC2=O)C(=O)NCC(=O)NCC(=O)NCC(=O)NCCCC[C@@H]2NC(=O)[C@@H](Cc3ccccc3)NC(=O)[C@H](CC(=O)O)NC(=O)CNC(=O)[C@H](CCCNC(=N)N)NC2=O)NC(=O)[C@@H](Cc2ccccc2)NC(=O)[C@H](CC(=O)O)NC(=O)CNC1=O [indium-111 labelled] | female athymic nude mice, eyes | intravenous, 3 µCi, 4 h, U-87 MG glioma xenograft | 0.66 ± 0.08 |
| CCCC[C@H](NC(=O)COCCOCCNC(=O)c1ccc(NN)nc1)C(=O)N[C@H]1CC(=O)NCCCC[C@@H](C(N)=O)NC(=O)[C@H](Cc2c[nH]c3ccccc23)NC(=O)[C@H](CCCNC(=N)N)NC(=O)[C@@H](Cc2ccccc2)NC(=O)[C@H](Cc2c[nH]cn2)NC1=O [technetium-99m labelled] | C57 mouse, female, B16/F1 melanoma, heart | intravenous, 0.037 MBq, 2 h | 0.08 ± 0.03 |

For quick reference, copied from above:
| SMILES | test system | setting | tissue uptake [%ID/g] |
| --- | --- | --- | --- |
| CC(C)C[C@H](NC(=O)[C@H](Cc1ccc(O)cc1)NC(=O)[C@@H](CCCNC(=N)N)NC(=O)[C@@H](CO)NC(=O)[C@H](Cc1ccccc1)NC(=O)[C@H](CC1CCCCC1)NC(=O)[C@H](CC(=O)O)NC(=O)CCC(C(=O)O)N1CCCN2CCN(CCCN(CC(=O)O)CC2)CC1)C(=O)N[C@@H](Cc1c[nH]c2ccccc12)C(=O)N[C@@H](CO)C(=O)O (stereo partly shown) [copper-64 labelled] | female NMRI nude mice, bone | 22 h p.i. | 0.9 ± 0.3 |
